Results pooled from the literature.
Each numbered part is a random draw from the data of one study; scales do not carry over between parts. Values joined by “and” are separate records of one study, mostly repeats; a detail may differ. Substitutions count along the parent as printed.
UniProt P29597, sequence (whole entry, looked up): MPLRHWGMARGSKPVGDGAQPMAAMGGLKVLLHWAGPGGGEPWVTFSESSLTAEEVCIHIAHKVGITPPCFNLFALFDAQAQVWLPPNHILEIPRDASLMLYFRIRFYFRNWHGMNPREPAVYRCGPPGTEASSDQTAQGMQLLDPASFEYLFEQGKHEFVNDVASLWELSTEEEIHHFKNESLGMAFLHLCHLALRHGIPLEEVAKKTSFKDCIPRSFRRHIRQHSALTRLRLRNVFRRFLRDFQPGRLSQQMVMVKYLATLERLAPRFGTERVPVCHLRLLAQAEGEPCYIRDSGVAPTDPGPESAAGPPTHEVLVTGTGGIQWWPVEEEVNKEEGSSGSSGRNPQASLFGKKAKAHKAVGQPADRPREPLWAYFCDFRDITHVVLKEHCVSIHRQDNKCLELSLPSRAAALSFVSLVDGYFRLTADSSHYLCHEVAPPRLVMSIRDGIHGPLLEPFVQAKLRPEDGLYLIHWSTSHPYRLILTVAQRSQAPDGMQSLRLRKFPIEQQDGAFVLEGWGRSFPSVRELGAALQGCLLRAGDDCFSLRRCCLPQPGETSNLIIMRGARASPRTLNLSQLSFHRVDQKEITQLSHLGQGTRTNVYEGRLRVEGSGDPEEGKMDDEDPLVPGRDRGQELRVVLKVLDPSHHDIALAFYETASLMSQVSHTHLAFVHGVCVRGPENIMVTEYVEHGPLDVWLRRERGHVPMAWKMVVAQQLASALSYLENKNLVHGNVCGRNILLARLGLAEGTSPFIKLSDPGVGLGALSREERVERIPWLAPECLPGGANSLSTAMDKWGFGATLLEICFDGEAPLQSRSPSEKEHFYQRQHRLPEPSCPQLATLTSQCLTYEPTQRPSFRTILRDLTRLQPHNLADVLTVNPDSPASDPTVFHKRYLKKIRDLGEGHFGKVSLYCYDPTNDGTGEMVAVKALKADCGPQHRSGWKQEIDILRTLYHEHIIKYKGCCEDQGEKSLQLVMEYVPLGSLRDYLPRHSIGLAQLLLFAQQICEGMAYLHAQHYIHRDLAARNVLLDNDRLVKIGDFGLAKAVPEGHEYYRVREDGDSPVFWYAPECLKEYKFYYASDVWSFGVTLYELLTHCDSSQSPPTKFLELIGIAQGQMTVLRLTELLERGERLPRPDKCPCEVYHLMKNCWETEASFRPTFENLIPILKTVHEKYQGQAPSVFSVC
UniProt Q96KB5, sequence (whole entry, looked up): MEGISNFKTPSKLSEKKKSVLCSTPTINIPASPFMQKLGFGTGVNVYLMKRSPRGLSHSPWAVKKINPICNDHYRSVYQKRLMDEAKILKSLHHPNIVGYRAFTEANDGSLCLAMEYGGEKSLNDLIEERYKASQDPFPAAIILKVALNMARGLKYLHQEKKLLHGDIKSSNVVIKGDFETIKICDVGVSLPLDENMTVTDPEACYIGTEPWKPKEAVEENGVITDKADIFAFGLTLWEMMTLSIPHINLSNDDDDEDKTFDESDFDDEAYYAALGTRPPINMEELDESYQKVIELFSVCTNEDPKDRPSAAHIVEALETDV
UniProt Q16584, sequence (whole entry, looked up): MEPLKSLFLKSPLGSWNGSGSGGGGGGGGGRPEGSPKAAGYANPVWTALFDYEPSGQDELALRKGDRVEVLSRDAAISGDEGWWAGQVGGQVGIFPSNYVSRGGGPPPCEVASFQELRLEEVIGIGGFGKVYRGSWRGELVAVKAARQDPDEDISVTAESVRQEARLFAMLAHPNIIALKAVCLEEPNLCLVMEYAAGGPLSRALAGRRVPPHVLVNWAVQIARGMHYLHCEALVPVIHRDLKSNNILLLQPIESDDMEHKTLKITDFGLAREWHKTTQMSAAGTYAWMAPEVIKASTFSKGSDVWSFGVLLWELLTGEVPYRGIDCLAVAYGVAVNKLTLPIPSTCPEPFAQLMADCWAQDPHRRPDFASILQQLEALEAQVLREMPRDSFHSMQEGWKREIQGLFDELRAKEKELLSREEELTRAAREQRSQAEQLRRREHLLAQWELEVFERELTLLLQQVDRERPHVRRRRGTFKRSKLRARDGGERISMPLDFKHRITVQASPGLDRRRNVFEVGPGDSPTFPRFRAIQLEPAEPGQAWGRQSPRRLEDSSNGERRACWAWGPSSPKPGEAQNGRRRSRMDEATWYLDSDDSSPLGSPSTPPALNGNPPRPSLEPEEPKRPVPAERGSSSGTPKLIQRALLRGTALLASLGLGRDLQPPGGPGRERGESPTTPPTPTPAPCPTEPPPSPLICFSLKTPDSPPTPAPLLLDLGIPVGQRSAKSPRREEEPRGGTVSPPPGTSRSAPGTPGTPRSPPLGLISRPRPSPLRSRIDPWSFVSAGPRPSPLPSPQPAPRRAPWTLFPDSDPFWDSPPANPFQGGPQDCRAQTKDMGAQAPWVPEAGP
UniProt Q9BZL6, sequence (whole entry, looked up): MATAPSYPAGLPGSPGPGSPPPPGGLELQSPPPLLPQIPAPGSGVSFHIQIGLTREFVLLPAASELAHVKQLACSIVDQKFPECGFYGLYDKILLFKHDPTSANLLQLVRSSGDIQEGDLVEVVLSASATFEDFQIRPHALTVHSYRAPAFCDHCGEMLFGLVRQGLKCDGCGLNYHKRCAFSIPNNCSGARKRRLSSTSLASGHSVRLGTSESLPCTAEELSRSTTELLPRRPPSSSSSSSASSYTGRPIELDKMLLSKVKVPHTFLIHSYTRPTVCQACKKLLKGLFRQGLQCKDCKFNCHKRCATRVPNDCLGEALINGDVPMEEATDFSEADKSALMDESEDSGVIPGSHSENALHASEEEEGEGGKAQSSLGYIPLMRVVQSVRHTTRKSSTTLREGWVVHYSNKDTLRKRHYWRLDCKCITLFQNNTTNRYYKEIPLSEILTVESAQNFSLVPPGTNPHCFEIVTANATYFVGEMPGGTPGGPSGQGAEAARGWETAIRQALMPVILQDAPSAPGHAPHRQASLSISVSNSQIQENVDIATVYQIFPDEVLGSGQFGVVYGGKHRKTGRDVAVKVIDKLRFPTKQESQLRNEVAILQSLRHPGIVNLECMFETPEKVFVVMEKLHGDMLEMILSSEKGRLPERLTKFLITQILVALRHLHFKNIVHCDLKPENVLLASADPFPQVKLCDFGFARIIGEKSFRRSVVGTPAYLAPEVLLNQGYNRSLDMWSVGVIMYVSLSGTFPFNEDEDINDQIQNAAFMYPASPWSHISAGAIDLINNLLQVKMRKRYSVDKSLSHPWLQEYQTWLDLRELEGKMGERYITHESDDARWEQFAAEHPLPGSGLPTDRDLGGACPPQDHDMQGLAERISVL
UniProt O43293, sequence (whole entry, looked up): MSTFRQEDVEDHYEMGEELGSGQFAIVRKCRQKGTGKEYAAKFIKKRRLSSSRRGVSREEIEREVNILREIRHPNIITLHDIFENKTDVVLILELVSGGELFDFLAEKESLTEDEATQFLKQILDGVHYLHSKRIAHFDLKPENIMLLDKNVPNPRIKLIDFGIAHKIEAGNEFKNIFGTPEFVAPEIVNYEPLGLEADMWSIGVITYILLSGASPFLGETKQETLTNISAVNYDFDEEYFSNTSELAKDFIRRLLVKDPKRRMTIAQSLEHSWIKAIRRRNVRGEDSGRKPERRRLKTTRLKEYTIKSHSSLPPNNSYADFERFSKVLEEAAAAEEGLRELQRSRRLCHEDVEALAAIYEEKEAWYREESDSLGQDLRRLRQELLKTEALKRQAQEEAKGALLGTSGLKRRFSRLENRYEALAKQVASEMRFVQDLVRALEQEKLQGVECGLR
UniProt Q13555, sequence (whole entry, looked up): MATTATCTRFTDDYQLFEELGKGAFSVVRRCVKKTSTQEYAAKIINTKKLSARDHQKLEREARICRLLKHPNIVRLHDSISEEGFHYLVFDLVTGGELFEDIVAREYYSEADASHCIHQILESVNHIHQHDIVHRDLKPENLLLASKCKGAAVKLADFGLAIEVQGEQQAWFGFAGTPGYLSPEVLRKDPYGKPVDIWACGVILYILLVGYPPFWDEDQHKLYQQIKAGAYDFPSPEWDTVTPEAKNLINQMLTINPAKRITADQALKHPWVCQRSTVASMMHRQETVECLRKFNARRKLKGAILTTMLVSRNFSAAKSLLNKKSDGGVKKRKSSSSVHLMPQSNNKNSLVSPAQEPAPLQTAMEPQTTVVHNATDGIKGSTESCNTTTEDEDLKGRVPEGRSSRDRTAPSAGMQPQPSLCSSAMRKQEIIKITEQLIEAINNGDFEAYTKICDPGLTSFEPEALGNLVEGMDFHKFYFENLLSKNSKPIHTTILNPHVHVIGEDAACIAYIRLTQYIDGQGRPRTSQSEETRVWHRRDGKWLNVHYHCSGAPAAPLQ
UniProt Q9BUB5, sequence (whole entry, looked up): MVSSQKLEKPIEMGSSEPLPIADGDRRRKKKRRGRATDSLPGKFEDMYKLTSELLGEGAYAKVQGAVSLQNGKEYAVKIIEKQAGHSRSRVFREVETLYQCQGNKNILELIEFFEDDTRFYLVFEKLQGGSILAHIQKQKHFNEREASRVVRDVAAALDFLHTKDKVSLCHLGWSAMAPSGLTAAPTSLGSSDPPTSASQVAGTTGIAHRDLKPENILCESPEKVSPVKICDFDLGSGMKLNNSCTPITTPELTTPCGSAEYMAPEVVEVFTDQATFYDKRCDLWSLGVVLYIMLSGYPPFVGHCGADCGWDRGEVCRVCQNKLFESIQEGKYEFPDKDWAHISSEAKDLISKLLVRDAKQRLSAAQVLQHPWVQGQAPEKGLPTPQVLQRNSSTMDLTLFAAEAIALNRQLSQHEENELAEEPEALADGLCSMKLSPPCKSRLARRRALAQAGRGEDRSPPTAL

Block 1
Structure (SMILES): COC[C@H]1OC(=O)c2coc3c2[C@@]1(C)C1=C(C3=O)[C@@H]2CCC(=O)[C@@]2(C)C[C@H]1OC(C)=O
Observed: enzyme activity
Action: inhibitor
Concentration: 0.5 µM
Baseline: control
Quantity: remaining activity
MAP kinase-interacting serine/threonine-protein kinase 1 (MKNK1, Homo sapiens, UniProt Q9BUB5): 107%
NUAK family SNF1-like kinase 2 (NUAK2, Homo sapiens, UniProt Q9H093): 131%
Serine/threonine-protein kinase 24 (STK24, Homo sapiens, UniProt Q9Y6E0): 93.1%
Mitogen-activated protein kinase kinase kinase 11 (MAP3K11, Homo sapiens, UniProt Q16584): 97.1%
Lymphokine-activated killer T-cell-originated protein kinase (PBK, Homo sapiens, UniProt Q96KB5): 104%
Death-associated protein kinase 3 (DAPK3, Homo sapiens, UniProt O43293): 87.5%
Ephrin type-A receptor 8 (EPHA8, Homo sapiens, UniProt P29322): 96.4%
Calcium/calmodulin-dependent protein kinase type II subunit gamma (CAMK2G, Homo sapiens, UniProt Q13555): 86.4%
Non-receptor tyrosine-protein kinase TYK2 (TYK2, Homo sapiens, UniProt P29597): 92.1%
Serine/threonine-protein kinase D2 (PRKD2, Homo sapiens, UniProt Q9BZL6): 96.6%

Block 2
Target: CCNB3, cyclin fold, Cln2 fusion (human)
Technique: yeast growth competition, sequencing
Medium: yeast
Notes: strong parent motif
Baseline: not given
Reading: higher = stronger binding
Quantity: normalised enrichment score
Parent: viral docking peptide; KGVKRKLFAEDSS
KQVKRKLFAEDSS [G2Q]: 2.41
KLVKRKLFAEDSS [G2L]: 2.43
KGVKTKLFAEDSS [R5T]: 0.202
KGVKRKLFFEDSS [A9F]: 2.91
KGVKRKLFAYDSS [E10Y]: 1.13
KGVKRKLFAKDSS [E10K]: 1.22
KGVKRKVFAEDSS [L7V]: 0.181
KGVKRKLFAEHSS [D11H]: 2.33

Mixed results
CRK2: Cyclin-dependent kinase 2 homolog (CRK2, Plasmodium falciparum, UniProt P61075)
UniProt P61075, sequence (whole entry, looked up): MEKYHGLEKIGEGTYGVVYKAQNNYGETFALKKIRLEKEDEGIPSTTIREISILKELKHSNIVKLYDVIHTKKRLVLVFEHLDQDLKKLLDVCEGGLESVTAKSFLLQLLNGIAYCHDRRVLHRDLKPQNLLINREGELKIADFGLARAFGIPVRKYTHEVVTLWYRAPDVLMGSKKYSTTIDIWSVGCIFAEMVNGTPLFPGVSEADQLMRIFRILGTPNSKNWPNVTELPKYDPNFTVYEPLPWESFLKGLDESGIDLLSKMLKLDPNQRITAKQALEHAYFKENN
CCS(=O)(=O)c1cc2cc(C[C@](O)(CC(C)(C)c3ccc(F)cc3C(N)=O)C(F)(F)F)[nH]c2cn1
remaining binding (CRK2; cell-free assay, competition with immobilised ligand; 1 µM): 100%

CCCCC[C@@H](O)CC(=O)N[C@H]1COC(=O)[C@H](CO)NC(=O)CNC(=O)[C@H]([C@@H](C)O)NC(=O)[C@H](Cc2ccccc2)NC(=O)[C@@H](Cc2c[nH]c3ccccc23)NC(=O)[C@@H]([C@H](C)O)NC(=O)[C@H](CC(N)=O)NC(=O)[C@@H]([C@H](C)O)NC(=O)[C@H](CC(C)C)NC(=O)[C@@H](Cc2c[nH]c3ccccc23)N(C)C(=O)CNC(=O)[C@H](CO)NC(=O)[C@@H](CO)NC1=O
viable cells (Staphylococcus aureus; USA300; 2 x MIC, 360 min): 400 CFU/mL and 200 CFU/mL

COc1cccc(NC(=O)c2nc3scc(CN(C)Cc4ccccc4)c3c(=O)[nH]2)c1
Ki (Sodium-dependent serotonin transporter (SLC6A4, Homo sapiens, UniProt P31645); binding, radioligand binding): 831 nM

C[C@H](c1ccnc(Nc2nc3ccc(-c4cc(N(C)C)ncn4)cc3[nH]2)c1)N1CCN(C(=O)CC(F)(F)F)CC1
remaining binding (CRK2; cell-free assay, competition with immobilised ligand; 0.1 µM): 100%

CNC(=O)c1cc(C(=O)NC2CC2)cn(Cc2ccccc2)c1=O
inhibition (Sigma non-opioid intracellular receptor 1 (SIGMAR1, Homo sapiens, UniProt Q99720); binding, radioligand binding; 10 µM): -24.2%

For quick reference, copied from above (block 1):
Non-receptor tyrosine-protein kinase TYK2 (TYK2, Homo sapiens, UniProt P29597): 92.1%
Calcium/calmodulin-dependent protein kinase type II subunit gamma (CAMK2G, Homo sapiens, UniProt Q13555): 86.4%
